# Assay results gathered from unrelated publications.
# Each numbered part is a random draw from the data of one study; scales do not carry over between parts.
# UniProt Q92772, sequence (whole entry, looked up): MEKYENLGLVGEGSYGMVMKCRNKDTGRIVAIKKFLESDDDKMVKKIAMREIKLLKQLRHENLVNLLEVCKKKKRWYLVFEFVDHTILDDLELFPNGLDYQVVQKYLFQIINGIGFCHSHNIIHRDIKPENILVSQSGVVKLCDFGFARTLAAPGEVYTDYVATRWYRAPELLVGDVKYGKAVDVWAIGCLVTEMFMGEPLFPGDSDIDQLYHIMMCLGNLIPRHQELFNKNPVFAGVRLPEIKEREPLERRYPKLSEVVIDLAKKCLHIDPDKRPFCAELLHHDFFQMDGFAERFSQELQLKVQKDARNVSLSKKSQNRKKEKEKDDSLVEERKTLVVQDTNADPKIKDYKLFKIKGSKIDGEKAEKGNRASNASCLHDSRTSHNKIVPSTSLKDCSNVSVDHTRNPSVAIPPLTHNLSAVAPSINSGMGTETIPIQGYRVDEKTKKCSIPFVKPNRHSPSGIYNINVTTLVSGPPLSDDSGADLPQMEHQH
# UniProt Q6PHR2, sequence (whole entry, looked up): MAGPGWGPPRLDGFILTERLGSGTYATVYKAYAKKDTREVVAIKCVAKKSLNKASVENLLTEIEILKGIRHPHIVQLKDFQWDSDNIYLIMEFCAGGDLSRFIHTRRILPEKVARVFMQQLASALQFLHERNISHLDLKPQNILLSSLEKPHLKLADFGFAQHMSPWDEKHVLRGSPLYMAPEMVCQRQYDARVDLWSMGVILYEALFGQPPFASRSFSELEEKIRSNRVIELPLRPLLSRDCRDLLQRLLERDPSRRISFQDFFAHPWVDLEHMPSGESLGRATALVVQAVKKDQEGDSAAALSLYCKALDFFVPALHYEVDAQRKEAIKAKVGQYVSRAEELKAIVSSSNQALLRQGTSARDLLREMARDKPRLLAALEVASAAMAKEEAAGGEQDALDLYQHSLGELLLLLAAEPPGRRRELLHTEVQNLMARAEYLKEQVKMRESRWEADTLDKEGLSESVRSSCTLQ
# UniProt Q13554, sequence (whole entry, looked up): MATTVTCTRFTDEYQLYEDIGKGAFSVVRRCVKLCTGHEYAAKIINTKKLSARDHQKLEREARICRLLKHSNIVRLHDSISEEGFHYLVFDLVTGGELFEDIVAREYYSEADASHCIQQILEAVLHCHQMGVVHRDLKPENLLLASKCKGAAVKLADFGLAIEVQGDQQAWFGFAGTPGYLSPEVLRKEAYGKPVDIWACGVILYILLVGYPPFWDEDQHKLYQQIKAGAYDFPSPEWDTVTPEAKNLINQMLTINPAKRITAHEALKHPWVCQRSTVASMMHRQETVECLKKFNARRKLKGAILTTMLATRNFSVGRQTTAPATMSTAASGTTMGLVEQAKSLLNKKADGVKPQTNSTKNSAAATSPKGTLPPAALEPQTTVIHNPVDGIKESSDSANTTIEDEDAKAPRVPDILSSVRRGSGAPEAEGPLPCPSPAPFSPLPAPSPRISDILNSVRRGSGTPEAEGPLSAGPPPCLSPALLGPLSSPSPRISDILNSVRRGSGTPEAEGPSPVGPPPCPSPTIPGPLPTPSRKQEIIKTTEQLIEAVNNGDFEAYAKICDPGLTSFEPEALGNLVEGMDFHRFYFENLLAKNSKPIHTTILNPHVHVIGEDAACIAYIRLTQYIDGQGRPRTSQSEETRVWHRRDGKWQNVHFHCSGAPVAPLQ
# UniProt P11362, sequence (whole entry, looked up): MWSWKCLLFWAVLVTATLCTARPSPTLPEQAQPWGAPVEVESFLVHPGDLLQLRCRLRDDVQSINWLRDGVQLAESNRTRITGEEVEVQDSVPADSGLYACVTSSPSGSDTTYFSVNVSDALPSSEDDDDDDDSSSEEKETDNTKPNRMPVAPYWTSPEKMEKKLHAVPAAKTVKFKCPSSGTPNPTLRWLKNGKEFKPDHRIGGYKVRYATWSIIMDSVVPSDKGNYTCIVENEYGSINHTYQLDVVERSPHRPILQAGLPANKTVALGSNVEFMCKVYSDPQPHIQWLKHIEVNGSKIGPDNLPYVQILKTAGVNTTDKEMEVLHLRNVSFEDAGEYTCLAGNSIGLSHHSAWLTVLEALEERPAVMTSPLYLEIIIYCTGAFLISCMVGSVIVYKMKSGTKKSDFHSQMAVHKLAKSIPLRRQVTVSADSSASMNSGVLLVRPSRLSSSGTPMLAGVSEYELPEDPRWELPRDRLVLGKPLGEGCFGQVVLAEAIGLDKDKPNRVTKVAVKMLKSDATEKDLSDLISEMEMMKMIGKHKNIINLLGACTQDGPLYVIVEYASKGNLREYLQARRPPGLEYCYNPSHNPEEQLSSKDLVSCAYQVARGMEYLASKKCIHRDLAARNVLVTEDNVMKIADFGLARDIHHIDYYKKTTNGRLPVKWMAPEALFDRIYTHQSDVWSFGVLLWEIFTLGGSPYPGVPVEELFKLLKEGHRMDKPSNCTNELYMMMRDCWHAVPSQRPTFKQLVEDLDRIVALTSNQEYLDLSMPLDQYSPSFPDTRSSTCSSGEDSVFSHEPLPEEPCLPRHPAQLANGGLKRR
# UniProt P29597, sequence (whole entry, looked up): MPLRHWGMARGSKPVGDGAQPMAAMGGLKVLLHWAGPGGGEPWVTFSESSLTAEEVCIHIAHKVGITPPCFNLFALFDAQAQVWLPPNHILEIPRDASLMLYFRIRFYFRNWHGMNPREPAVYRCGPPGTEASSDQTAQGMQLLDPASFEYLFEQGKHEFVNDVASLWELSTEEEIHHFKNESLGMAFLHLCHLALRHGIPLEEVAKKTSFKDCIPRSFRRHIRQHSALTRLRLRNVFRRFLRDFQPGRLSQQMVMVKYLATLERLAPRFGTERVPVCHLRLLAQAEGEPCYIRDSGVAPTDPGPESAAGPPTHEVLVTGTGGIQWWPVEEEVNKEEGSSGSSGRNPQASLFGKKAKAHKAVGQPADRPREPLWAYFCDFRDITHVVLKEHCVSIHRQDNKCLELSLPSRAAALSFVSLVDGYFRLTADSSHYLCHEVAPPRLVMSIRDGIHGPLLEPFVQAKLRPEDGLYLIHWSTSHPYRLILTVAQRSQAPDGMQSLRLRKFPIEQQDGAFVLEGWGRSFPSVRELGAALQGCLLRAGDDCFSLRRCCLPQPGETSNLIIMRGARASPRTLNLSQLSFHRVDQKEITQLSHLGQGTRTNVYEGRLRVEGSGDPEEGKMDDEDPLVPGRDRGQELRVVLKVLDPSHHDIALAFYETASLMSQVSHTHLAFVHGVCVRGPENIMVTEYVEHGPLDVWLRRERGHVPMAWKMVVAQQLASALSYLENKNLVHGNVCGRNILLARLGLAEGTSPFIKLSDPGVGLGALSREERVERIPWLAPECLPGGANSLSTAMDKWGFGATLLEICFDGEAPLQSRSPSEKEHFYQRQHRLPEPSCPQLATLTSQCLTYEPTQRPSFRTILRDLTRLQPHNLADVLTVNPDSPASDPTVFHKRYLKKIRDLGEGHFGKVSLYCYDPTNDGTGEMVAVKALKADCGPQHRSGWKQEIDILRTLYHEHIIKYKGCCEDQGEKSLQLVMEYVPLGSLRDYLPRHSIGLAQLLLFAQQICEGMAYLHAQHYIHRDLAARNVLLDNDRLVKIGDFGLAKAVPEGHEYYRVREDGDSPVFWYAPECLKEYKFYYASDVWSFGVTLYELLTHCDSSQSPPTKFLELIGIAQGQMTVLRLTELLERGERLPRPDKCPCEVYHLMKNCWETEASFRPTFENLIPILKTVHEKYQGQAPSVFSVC
# UniProt P50613, sequence (whole entry, looked up): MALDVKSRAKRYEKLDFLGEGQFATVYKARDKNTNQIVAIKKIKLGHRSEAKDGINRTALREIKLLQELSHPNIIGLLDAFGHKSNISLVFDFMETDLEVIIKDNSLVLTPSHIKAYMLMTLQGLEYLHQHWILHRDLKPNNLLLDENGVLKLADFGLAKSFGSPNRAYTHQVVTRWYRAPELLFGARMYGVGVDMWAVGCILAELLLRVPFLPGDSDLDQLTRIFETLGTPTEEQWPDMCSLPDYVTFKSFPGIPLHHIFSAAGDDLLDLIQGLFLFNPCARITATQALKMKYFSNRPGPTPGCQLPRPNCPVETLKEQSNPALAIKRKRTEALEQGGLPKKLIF

# Block 1
# SMILES: COc1ccc2c(c1)O[C@@H](c1ccc(OC)c(OC)c1)C[C@H]2NC(=O)C1(c2ccc3c(c2)OC(F)(F)O3)CC1
# Read-out: cell-free assay
# Method: competition with immobilised ligand
# Concentration: 1 µM
target,remaining binding [%]
"CDKL2 (Homo sapiens, UniProt Q92772)",100
"FLT3 (Homo sapiens, UniProt P36888, D835V)",99
"ULK3 (Homo sapiens, UniProt Q6PHR2)",85
"CAMK2B (Homo sapiens, UniProt Q13554)",69
"Non-receptor tyrosine-protein kinase TYK2, JH1 (TYK2, Homo sapiens, UniProt P29597)",65
"Tyrosine-protein kinase ABL1, phosphorylated (ABL1, Homo sapiens, UniProt P00519, H396P)",86
"FGFR1 (Homo sapiens, UniProt P11362)",90
"CDK7 (Homo sapiens, UniProt P50613)",80

# Block 2
# Host: human
# Matrix: microsomes or S9
# Concentration: 2 µM
# Time: 0.5 h
Structure (SMILES),remaining compound [%]
N#Cc1ccc(OC2CCC(Nc3ncnc(N)c3Cl)CC2)nc1 (centres unmarked),91
COc1cccc(Nc2nnc(SCC(=O)OC(C)(C)C)s2)c1,10.2
CN(C(=O)CN1CC[C@@H]2OCc3cnnn3[C@H]2C1)c1ccccc1,> 100

# Block 3
# SMILES: COc1ccc(-c2c(Nc3ccccn3)[nH]c3c(C4=CCCCC4)c(-c4ccccc4)nn3c2=O)cc1
# Host: human patients
# Matrix: plasma
# Time: 0 h
refers to,dose,median concentration [ng/mL]
methionine,100 mg once daily,68700
S-adenosylmethionine,400 mg once daily,21.4
S-adenosylmethionine,100 mg once daily,15.4

# Block 4
# SMILES: CC(=O)N[C@@H](Cc1c[nH]c2ccccc12)C(=O)N[C@@H](CCC(=O)C=[N+]=[N-])C(=O)OC(C)C
# Matrix: EL4 tumour
# Dose: dose not given
# Baseline: vehicle
refers to,host,log2 fold change
cysteine sulfinic acid,Mus musculus,0.087
1-methylhistamine,"mouse, EL4 tumour-bearing",1.36
CMP,"mouse, EL4 tumour-bearing",-0.117

# Repeated from above (block 2):
Structure (SMILES),remaining compound [%]
CN(C(=O)CN1CC[C@@H]2OCc3cnnn3[C@H]2C1)c1ccccc1,> 100
N#Cc1ccc(OC2CCC(Nc3ncnc(N)c3Cl)CC2)nc1 (centres unmarked),91
COc1cccc(Nc2nnc(SCC(=O)OC(C)(C)C)s2)c1,10.2
